# Measurements from different studies.
# Compare with care: the assays were run in different laboratories. Values joined by “and” are separate records of one study, mostly repeats; a detail may differ. ± marks the error that the study gave.
Structure (SMILES),target or system,assay,test system,setting,scale,quantity,value
N=C(N)NCCC[C@H](NC(=O)[C@H](CCCNC(=N)N)NC(=O)[C@H](CCCNC(=N)N)NC(=O)[C@H](CCC(N)=O)NC(=O)[C@H](CCCNC(=N)N)NC(=O)[C@H](CCCNC(=N)N)NC(=O)[C@H](CCCCN)NC(=O)[C@H](CCCCN)NC(=O)[C@H](CCCNC(=N)N)NC(=O)CNC(=O)[C@H](Cc1ccc(O)cc1)NC(=O)[C@H](Cc1ccccc1)NC(=O)[C@H](Cc1ccccc1)NC(=O)[C@H](Cc1ccccc1)NC(=O)Cc1ccc2ccccc2c1)C(=O)O,,,C57BL/6 mice,"intraperitoneal, 10 mg/kg, 12 h",direction not given,health score,5
COc1cnc2cccc(N3CCc4c(cc(Cn5ccnc5)cc4-c4cn(C)nc4C(F)(F)F)C3=O)c2c1,,,"BALB/c nude mice, MV4-11 xenograft","intraperitoneal, 100 mg/kg, day 10",,body weight,23.6 g and 22.5 g and 23.4 g and 23.5 g
CC[C@H](C)[C@H](NC(=O)[C@H](CCCN)NC(=O)[C@H](CCCNC(=N)N)NC(=O)[C@@H]1CCCN1C(=O)[C@@H]1CCCN1C(=O)[C@H](CCCNC(=N)N)NC(=O)[C@@H]1CCCN1C(=O)[C@H](CCCNC(=N)N)NC(=O)[C@@H]1CCCN1C(=O)[C@H](CC(C)C)NC(=O)[C@H](Cc1ccc(O)cc1)NC(=O)[C@@H]1CCCN1C(=O)[C@@H]1CCCN1C(=O)[C@H](CCCCN)NC(=O)[C@H](CC(=O)O)NC(=O)[C@@H](N)C(C)C)C(=O)N[C@@H](Cc1ccc(O)cc1)C(=O)N[C@@H](CC(N)=O)C(=O)N[C@@H](CCCN)C(N)=O,,"cELISA, total compound","CD-1 mice, female, plasma","subcutaneous, 4.34 µmol/kg, single dose",,elimination half-life,0.717 h
CSCC[C@H](NC(=O)CNC(=O)[C@H](CCCCN)NC(=O)[C@H](CC(C)C)NC(=O)[C@@H]1CCCN1C(=O)[C@H](CO)NC(=O)[C@H](Cc1c[nH]cn1)NC(=O)[C@H](Cc1c[nH]c2ccccc12)NC(=O)[C@H](CCCNC(=N)N)NC(=O)[C@H](CC(C)C)NC(=O)[C@H](CCCNC(=N)N)NC(=O)[C@H](Cc1c[nH]c2ccccc12)NC(=O)[C@H](CS)NC(=O)CCCCCNC(=O)CN1CCN(CC(=O)O)CCN(CC(=O)O)CCN(CC(=O)O)CC1)C(=O)O [copper-64 labelled],,ex vivo biodistribution,"C57BL/6J mice bearing B16-F10 tumours, liver","intravenous, 1.85 MBq, 0.5 h",,tissue uptake,23.9 %ID/g
C/C(=N\OCCCN1CCCCC1)c1ccc(C(F)(F)F)cc1,,,"mouse, plasma","oral, 50 mg/kg twice daily, day 7",,Cmax,978 ± 478 ng/mL
Cc1cc(-c2cc([C@@H](C)NC(=O)c3cc(OCCN(C)C)ccc3C)c3ccccc3n2)n(C)n1,Vero E6,,,15.62 µM,,viability,99.2% and 102%
CC(C)(CCCC/C=C/CCCCCC(C)(C)C(=O)O)C(=O)O,,,"ICR mice, both sexes","oral, dose not given, 10 h",,plasma concentration,3800 ng/mL
CC[C@H](C)[C@H](NC(=O)[C@H](Cc1ccc(O)cc1)NC(=O)[C@@H](NC(=O)[C@H](CCCNC(=N)N)NC(=O)[C@@H](N)CC(=O)O)C(C)C)C(=O)N[C@@H](Cc1c[nH]cn1)C(=O)N1CCC[C@H]1C(=O)O,,,"Beagle dogs, plasma","subcutaneous, 10 mg/kg/day, day 0, median",,elimination rate constant,0.03 min⁻¹
Cc1ccc(OCC2CN(C)C2)cc1C(=O)N[C@H](C)c1cc(-c2cnn(C)c2)nc2ccccc12,Vero E6,,,31.25 µM,,viability,98% and 98.4% and 93.9%
O=C1NC2(CC2)COc2ncc(F)cc2[C@H]2COCCN2c2ccn3ncc1c3n2,,,"Sprague-Dawley rat, female, serum","oral, 5 mg/kg/day, 4 weeks daily, end of treatment",,gamma-glutamyltransferase activity,0.4 ± 0.3 U/L
O=C(c1cc(Cc2n[nH]c(=O)c3ccccc23)ccc1F)N1CC(CNC2CC2)C1,,,male Wistar Han rat,"oral, 15 mg/kg, day 1",,Cmax,602 ng/mL
CC[C@H](C)[C@H](NC(=O)[C@H](CCCCN)NC(=O)CNC(=O)[C@@H](NC(=O)[C@H](Cc1c[nH]cn1)NC(=O)[C@H](Cc1c[nH]cn1)NC(=O)[C@@H](NC(=O)CNC(=O)[C@H](Cc1c[nH]cn1)NC(=O)[C@H](Cc1ccccc1)NC(=O)[C@H](CC(C)C)NC(=O)[C@H](CC(C)C)NC(=O)[C@H](CCCNC(=N)N)NC(=O)[C@H](Cc1ccccc1)NC(=O)[C@@H](N)Cc1ccccc1)C(C)C)C(C)C)C(=O)N[C@@H](CCCCN)C(=O)N1CCC[C@H]1C(=O)N[C@@H](CCCNC(=N)N)C(=O)N[C@@H](C)C(N)=O,,,"zebrafish embryos 4 hpf, E3 medium",1 h,,acute toxic concentration,25 µM
CCCCCCCCCCCCCCCC(=O)N[C@@H](CCC(=O)NCCOCCOCCC(=O)NCCOCCOCCC(=O)NCCCC[C@H](NC(=O)[C@H](CC(=O)O)NC(=O)[C@H](CC(C)C)NC(=O)[C@H](Cc1ccc(O)cc1)NC(=O)[C@H](CCCCN)NC(=O)[C@H](CO)NC(=O)[C@H](Cc1ccc(O)cc1)NC(=O)[C@H](CC(=O)O)NC(=O)[C@H](CO)NC(=O)[C@@H](NC(=O)[C@H](Cc1ccccc1)NC(=O)[C@@H](NC(=O)CNC(=O)[C@H](CCC(N)=O)NC(=O)[C@@H](CO)NC(=O)[C@@H](N)Cc1c[nH]cn1)[C@@H](C)O)[C@@H](C)O)C(=O)N[C@@H](CCCNC(=N)N)C(=O)N[C@@H](CCCNC(=N)N)C(=O)N[C@@H](C)C(=O)N[C@@H](CCC(N)=O)C(=O)N[C@@H](CC(=O)O)C(=O)N[C@@H](Cc1ccccc1)C(=O)N[C@H](C(=O)N[C@@H](CCC(N)=O)C(=O)N[C@@H](Cc1c[nH]c2ccccc12)C(=O)N[C@@H](CC(C)C)C(=O)N[C@@H](CC(C)C)C(=O)N[C@@H](CC(N)=O)C(=O)N[C@H](C(=O)NCC(=O)NCC(=O)N1CCC[C@H]1C(=O)N[C@@H](CO)C(=O)N[C@@H](CO)C(=O)NCC(=O)N[C@@H](C)C(=O)N1CCC[C@H]1C(=O)N1CCC[C@H]1C(=O)N1CCC[C@H]1C(=O)N[C@@H](CO)C(N)=O)[C@@H](C)O)C(C)C)C(=O)O,,,"rhesus monkey, both sexes, plasma","subcutaneous, 20 µg/kg, multiple doses, day 7",,MRT,4.72 ± 0.386 h
Cc1ccccc1/N=N/c1ccc2[nH]cc(CCN(C)C)c2c1,,light irradiation,solution,with: light 530 nm,,trans isomer at photostationary state,67%
CN1Cc2cc(Cl)ccc2-n2c(nnc2C2CCN(c3cccc([18F])n3)CC2)C1,,,"C57BL/6 mouse male, testis","intravenous, 3.7 MBq, 30 min",,tissue uptake,1.37 ± 0.35 %ID/g
